{"data": "Measurements from different studies", "note": "Numbered parts are unrelated; each lists some results of a single study.", "UniProt Q15835, sequence (whole entry, looked up)": "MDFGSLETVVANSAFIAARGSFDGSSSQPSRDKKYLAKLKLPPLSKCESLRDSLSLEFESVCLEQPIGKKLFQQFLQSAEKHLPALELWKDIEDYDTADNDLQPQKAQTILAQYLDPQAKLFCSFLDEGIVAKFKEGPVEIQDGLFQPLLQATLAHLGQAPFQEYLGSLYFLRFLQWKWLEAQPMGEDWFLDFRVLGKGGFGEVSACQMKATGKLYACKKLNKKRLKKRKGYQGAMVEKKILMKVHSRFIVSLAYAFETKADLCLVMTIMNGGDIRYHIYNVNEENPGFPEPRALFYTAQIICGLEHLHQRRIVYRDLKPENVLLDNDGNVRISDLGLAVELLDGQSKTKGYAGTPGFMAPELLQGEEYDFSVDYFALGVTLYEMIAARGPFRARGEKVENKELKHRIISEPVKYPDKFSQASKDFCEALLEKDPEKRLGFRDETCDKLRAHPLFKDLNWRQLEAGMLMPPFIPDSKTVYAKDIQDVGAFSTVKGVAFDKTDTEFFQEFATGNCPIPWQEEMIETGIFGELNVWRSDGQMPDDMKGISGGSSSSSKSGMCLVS", "UniProt P37023, sequence (whole entry, looked up)": "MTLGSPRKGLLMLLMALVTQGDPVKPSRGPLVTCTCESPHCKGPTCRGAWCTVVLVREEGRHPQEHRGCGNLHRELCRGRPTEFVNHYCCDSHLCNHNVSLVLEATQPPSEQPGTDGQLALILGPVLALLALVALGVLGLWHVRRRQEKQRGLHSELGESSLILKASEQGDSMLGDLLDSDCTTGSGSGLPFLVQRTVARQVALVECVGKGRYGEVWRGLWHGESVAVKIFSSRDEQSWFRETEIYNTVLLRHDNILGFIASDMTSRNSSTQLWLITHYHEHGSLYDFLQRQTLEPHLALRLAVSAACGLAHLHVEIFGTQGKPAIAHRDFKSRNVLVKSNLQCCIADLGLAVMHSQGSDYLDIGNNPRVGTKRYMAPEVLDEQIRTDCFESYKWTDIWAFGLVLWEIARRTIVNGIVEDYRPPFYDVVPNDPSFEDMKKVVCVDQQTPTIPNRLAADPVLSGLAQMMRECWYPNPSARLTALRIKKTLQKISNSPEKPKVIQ", "UniProt O14578, sequence (whole entry, looked up)": "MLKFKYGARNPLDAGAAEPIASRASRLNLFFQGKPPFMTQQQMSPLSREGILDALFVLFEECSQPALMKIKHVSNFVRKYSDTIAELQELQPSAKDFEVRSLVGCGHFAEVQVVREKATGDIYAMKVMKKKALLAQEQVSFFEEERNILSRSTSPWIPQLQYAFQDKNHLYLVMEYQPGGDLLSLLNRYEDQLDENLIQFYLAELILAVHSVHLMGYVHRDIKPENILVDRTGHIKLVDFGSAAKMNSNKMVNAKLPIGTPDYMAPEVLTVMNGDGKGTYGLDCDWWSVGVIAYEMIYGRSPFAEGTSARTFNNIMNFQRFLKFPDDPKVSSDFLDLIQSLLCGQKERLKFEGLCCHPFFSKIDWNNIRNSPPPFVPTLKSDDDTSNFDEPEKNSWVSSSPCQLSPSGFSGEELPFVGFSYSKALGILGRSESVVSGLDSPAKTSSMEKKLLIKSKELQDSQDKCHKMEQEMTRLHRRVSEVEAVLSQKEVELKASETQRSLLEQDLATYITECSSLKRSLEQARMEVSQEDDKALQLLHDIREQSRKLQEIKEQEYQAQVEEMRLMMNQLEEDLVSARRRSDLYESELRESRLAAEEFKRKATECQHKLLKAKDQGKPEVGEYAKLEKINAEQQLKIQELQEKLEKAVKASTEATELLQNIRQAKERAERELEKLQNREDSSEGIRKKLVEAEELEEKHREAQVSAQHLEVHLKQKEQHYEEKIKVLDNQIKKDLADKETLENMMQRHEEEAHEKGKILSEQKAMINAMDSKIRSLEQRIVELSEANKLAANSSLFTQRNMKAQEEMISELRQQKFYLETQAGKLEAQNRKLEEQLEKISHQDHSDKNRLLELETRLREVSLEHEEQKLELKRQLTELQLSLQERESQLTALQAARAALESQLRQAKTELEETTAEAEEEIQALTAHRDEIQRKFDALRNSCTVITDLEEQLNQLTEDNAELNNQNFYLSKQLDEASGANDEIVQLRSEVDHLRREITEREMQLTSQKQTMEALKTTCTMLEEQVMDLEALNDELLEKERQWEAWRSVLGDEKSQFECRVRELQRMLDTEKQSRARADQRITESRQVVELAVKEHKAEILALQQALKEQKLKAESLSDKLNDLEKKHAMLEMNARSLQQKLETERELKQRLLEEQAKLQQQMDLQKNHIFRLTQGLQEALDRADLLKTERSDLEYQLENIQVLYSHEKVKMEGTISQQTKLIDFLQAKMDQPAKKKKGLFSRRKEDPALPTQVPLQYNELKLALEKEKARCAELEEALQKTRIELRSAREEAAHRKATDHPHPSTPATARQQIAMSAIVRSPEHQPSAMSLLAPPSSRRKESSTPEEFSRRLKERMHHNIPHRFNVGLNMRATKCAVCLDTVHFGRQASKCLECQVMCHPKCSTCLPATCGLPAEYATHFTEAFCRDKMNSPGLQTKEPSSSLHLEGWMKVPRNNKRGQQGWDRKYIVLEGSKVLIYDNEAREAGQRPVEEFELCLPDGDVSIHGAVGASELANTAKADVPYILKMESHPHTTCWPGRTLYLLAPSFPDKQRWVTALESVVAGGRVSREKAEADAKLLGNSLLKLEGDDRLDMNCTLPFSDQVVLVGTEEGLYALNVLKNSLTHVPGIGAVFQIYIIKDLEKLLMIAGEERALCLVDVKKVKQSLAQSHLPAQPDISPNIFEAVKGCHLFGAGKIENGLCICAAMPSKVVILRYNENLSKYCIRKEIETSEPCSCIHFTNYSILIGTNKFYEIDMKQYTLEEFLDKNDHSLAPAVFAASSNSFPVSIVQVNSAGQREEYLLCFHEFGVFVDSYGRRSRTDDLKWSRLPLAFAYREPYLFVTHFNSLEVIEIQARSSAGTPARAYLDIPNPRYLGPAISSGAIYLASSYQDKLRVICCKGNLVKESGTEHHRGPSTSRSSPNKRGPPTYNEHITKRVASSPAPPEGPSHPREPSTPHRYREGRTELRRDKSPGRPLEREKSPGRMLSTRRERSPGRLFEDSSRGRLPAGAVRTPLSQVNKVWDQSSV", "UniProt P07332, sequence (whole entry, looked up)": "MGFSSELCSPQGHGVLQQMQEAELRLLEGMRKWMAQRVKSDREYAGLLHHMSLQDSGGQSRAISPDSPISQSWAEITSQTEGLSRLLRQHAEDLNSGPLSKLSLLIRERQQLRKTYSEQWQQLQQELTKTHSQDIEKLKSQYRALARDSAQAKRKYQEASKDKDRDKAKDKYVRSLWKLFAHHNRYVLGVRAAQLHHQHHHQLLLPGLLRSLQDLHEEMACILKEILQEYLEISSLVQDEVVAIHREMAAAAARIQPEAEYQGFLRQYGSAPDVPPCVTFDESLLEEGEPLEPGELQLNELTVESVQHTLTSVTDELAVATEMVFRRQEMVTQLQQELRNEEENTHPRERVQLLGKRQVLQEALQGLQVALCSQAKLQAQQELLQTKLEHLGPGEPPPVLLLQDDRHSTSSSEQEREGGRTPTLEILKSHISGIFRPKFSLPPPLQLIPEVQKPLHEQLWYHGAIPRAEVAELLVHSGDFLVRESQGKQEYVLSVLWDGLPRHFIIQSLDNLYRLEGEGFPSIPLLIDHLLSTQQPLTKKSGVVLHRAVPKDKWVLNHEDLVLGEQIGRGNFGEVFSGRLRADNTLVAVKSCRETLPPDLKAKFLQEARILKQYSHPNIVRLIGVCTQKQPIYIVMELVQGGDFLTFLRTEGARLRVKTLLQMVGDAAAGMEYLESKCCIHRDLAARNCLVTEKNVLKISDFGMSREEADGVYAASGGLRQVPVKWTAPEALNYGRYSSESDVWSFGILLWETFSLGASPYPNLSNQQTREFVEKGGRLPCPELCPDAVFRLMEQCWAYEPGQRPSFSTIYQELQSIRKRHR"}
{"data": "Sample 1", "target": "Protein-tyrosine kinase 6 (PTK6, Homo sapiens, UniProt Q13882)", "effect on": "enzyme activity", "action": "inhibitor", "tested at": "0.5 µM", "relative to": "control", "UniProt Q13882, sequence (whole entry, looked up)": "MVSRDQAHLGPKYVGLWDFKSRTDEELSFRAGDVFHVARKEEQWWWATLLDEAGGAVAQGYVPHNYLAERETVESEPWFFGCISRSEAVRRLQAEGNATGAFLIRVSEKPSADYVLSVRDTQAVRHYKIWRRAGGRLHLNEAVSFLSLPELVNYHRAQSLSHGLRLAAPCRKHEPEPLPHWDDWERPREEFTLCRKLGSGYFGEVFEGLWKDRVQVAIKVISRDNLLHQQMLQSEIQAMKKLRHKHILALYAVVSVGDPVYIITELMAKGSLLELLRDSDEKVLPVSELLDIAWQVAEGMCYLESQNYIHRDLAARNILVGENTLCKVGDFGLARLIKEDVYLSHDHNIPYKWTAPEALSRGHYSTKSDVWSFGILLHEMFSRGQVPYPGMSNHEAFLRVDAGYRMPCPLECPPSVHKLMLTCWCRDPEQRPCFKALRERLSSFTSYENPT"}
{"SMILES": "COc1ccc(S(=O)(=O)N(CCO)c2ccccc2CN(C)CC=Cc2ccc(Cl)cc2)cc1", "remaining activity": "89.3%"}
{"SMILES": "CCCC(=O)Oc1ccc2[nH]c(C(=O)c3cc4ccccc4[nH]3)cc2c1", "remaining activity": "85.4%"}
{"SMILES": "O=C1NC(=O)C(c2c[nH]c3ccccc23)=C1c1c[nH]c2ccccc12", "remaining activity": "84.6%"}
{"SMILES": "CC[n+]1c(/C=C/N(C)c2ccccc2)n(-c2ccccc2)c2ccc(-c3nc4ccccc4s3)cc21", "remaining activity": "90.2%"}
{"SMILES": "Cc1cncc2cccc(S(=O)(=O)N3CCCN(C(=O)CN)C[C@@H]3C)c12", "remaining activity": "87.8%"}
{"SMILES": "Oc1ccc(Nc2nc(-c3ccc(Cl)cc3)cs2)cc1", "remaining activity": "87.4%"}
{"SMILES": "Nc1ncnc2c1cnn2-c1ccccc1", "remaining activity": "92%"}
{"SMILES": "CC(=O)c1ccc(N2CCOCC2)cc1O", "remaining activity": "104%"}
{"SMILES": "Nc1nccc(-c2c(-c3ccc(F)cc3)ncn2C2CCNCC2)n1", "remaining activity": "73.4%"}
{"SMILES": "N#CC(=C(N)Sc1ccc(N)cc1)c1ccccc1C(F)(F)F", "remaining activity": "97.6%"}
{"SMILES": "NC(=O)c1ccc(N(C(N)=O)c2c(F)cccc2F)nc1-c1ccc(F)cc1F", "remaining activity": "98.7%"}
{"SMILES": "CCc1[nH]c(-c2ccc(OC)cc2)nc1-c1ccncc1", "remaining activity": "88.5%"}
{"SMILES": "Fc1ccc(-c2nc3n(c2-c2ccncc2)CCS3)cc1", "remaining activity": "84.8%"}
{"SMILES": "CSc1nc(-c2ccnc(N[C@@H](C)c3ccccc3)c2)c(-c2ccc(F)cc2)[nH]1 (racemic)", "remaining activity": "96.8%"}
{"SMILES": "O=C1Cc2c([nH]c3ccc([N+](=O)[O-])cc23)-c2ccccc2N1", "remaining activity": "92.7%"}
{"SMILES": "Cc1cc(Nc2nc(-c3ccccc3)nc3ccccc23)n[nH]1", "remaining activity": "61.6%"}
{"SMILES": "O=S(=O)(NCCNC/C=C/c1ccc(Br)cc1)c1cccc2cnccc12", "remaining activity": "94.2%"}
{"SMILES": "Cc1ccc(NC2=CC(=O)c3sc(C)nc3C2=O)cc1", "remaining activity": "89.2%"}
{"SMILES": "CC(C)(C)n1nc(Cc2cccc3ccccc23)c2c(N)ncnc21", "remaining activity": "19.2%"}
{"SMILES": "COc1cc(Nc2c(C#N)cnc3cc(OCCCN4CCN(C)CC4)c(OC)cc23)c(Cl)cc1Cl", "remaining activity": "93.1%"}
{"SMILES": "CC#CC(=O)Nc1cc2c(Nc3ccc(F)c(Cl)c3)ncnc2cn1", "remaining activity": "56.8%"}
{"data": "Sample 2", "SMILES": "Cc1sc(C(=O)NC2COC2)cc1-n1cc(NC(=O)Nc2c(F)cccc2Cl)cn1", "effect on": "enzyme activity", "tested at": "10 µM"}
{"target": "EPHA2 (Homo sapiens, UniProt P29317)", "how to read": "relative to: untreated control", "remaining activity [%]": 100}
{"target": "PDGFRA (Homo sapiens, UniProt P16234)", "how to read": "relative to: untreated control", "remaining activity [%]": 102}
{"target": "NEK7 (Homo sapiens, UniProt Q8TDX7)", "how to read": "relative to: untreated control", "remaining activity [%]": 95.9}
{"target": "MAP3K21 (Homo sapiens, UniProt Q5TCX8)", "how to read": "relative to: untreated control", "remaining activity [%]": 83.9}
{"target": "MAST3 (Homo sapiens, UniProt O60307)", "test": "inhibitor", "remaining activity [%]": 96.7}
{"target": "Insulin receptor (INSR, Homo sapiens, UniProt P06213)", "how to read": "relative to: untreated control", "remaining activity [%]": 84.4}
{"target": "LIM domain kinase 2 (LIMK2, Homo sapiens, UniProt P53671)", "how to read": "relative to: untreated control", "remaining activity [%]": 98.2}
{"target": "PKN1 (Homo sapiens, UniProt Q16512)", "how to read": "relative to: untreated control", "remaining activity [%]": 73.9}
{"target": "HIPK3 (Homo sapiens, UniProt Q9H422)", "how to read": "relative to: untreated control", "remaining activity [%]": 84.9}
{"target": "CIT (Homo sapiens, UniProt O14578)", "how to read": "relative to: untreated control", "remaining activity [%]": 97.6}
{"target": "Cyclin-dependent kinase 2, with cyclin E (CDK2, Homo sapiens, UniProt P24941)", "how to read": "relative to: untreated control", "remaining activity [%]": 103}
{"target": "AKT2 (Homo sapiens, UniProt P31751)", "how to read": "relative to: untreated control", "remaining activity [%]": 89.8}
{"target": "IGF1R (Homo sapiens, UniProt P08069)", "how to read": "relative to: untreated control", "remaining activity [%]": 102}
{"target": "PRKCG (Homo sapiens, UniProt P05129)", "how to read": "relative to: untreated control", "remaining activity [%]": 101}
{"target": "MYLK2 (Homo sapiens, UniProt Q9H1R3)", "how to read": "relative to: untreated control", "remaining activity [%]": 78.5}
{"target": "NLK (Homo sapiens, UniProt Q9UBE8)", "how to read": "relative to: untreated control", "remaining activity [%]": 83.9}
{"data": "Sample 3", "Structure (SMILES)": "CNCc1ccccc1-c1csc([C@@H](C)Nc2nc(C)nc3cc(OC)c(OC)cc23)c1", "effect on": "cell-free assay", "method": "competition with immobilised ligand", "tested at": "1 µM"}
{"target": "ACVR1 (Homo sapiens, UniProt Q04771)", "remaining binding [%]": 100}
{"target": "YES1 (Homo sapiens, UniProt P07947)", "remaining binding [%]": 100}
{"target": "MAP2K3 (Homo sapiens, UniProt P46734)", "remaining binding [%]": 80}
{"target": "MAP3K7 (Homo sapiens, UniProt O43318)", "remaining binding [%]": 70}
{"target": "STK25 (Homo sapiens, UniProt O00506)", "remaining binding [%]": 89}
{"target": "MELK (Homo sapiens, UniProt Q14680)", "remaining binding [%]": 53}
{"target": "FGFR3 (Homo sapiens, UniProt P22607)", "remaining binding [%]": 90}
{"target": "STK32A (Homo sapiens, UniProt Q8WU08)", "remaining binding [%]": 76}
{"target": "FGFR2 (Homo sapiens, UniProt P21802)", "remaining binding [%]": 85}
{"target": "MAP2K4 (Homo sapiens, UniProt P45985)", "remaining binding [%]": 86}
{"target": "BLK (Homo sapiens, UniProt P51451)", "remaining binding [%]": 91}
{"target": "FES (Homo sapiens, UniProt P07332)", "remaining binding [%]": 100}
{"target": "ACVRL1 (Homo sapiens, UniProt P37023)", "remaining binding [%]": 87}
{"target": "SIK3 (Homo sapiens, UniProt Q9Y2K2)", "remaining binding [%]": 90}
{"target": "NEK1 (Homo sapiens, UniProt Q96PY6)", "remaining binding [%]": 91}
{"target": "PRKCH (Homo sapiens, UniProt P24723)", "remaining binding [%]": 100}
{"target": "MARK1 (Homo sapiens, UniProt Q9P0L2)", "remaining binding [%]": 100}
{"target": "GRK1 (Homo sapiens, UniProt Q15835)", "remaining binding [%]": 99}
{"target": "PAK1 (Homo sapiens, UniProt Q13153)", "remaining binding [%]": 97}
{"target": "Ribosomal protein S6 kinase alpha-1, N-terminal kinase domain (RPS6KA1, Homo sapiens, UniProt Q15418)", "remaining binding [%]": 76}
{"data": "Sample 4", "target": "Beta-1 adrenergic receptor (ADRB1, Homo sapiens, UniProt P08588)", "action": "antagonist", "UniProt P08588, sequence (whole entry, looked up)": "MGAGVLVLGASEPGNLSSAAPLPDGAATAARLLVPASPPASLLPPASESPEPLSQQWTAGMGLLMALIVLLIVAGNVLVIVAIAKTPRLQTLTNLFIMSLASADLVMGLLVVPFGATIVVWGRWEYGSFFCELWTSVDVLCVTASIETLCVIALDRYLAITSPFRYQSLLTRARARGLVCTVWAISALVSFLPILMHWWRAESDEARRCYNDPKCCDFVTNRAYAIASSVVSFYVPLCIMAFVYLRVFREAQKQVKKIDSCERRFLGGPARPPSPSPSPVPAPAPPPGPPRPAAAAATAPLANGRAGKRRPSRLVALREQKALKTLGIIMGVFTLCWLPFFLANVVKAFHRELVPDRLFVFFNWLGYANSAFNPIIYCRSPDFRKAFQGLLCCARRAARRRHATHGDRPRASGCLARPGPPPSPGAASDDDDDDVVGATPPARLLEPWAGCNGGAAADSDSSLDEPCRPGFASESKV"}
{"SMILES": "COc1ccccc1N1CCN(CCCCN2C(=O)CCC2=O)CC1", "IC50 [µM]": 22.4}
{"SMILES": "CC1=CCN(Cc2ccc(OCC(O)CN3CCN(C)CC3)cc2)CC1 (centres unmarked)", "IC50 [µM]": "≥ 100"}
{"SMILES": "CC#CCn1cc2c3c(cccc31)[C@H](CC(C)C)N[C@H](C(=O)NCCNC(C)=O)C2", "IC50 [µM]": "≥ 100"}
{"SMILES": "COc1ccccc1N1CCN([C@H]2[C@@H]3OC[C@@H](O3)[C@@H](N(CC3CC3)CC3CC3)[C@@H]2O)CC1", "IC50 [µM]": "≥ 100"}
{"SMILES": "CC(Cc1cccc(C(F)(F)F)c1)NCCOC(=O)c1ccccc1 (centres unmarked)", "IC50 [µM]": "≥ 100"}
{"SMILES": "CS(=O)(=O)N(CC(O)Cn1c2ccccc2c2ccccc21)c1ccccc1I (centres unmarked)", "IC50 [µM]": "≥ 100"}
{"SMILES": "CC(=O)Nc1sc2c(c1-c1cccc3ccccc13)CCNC2", "IC50 [µM]": "≥ 100"}
{"SMILES": "COc1ccc2c(CSc3nnnn3-c3ccccc3)cc(=O)oc2c1", "IC50 [µM]": "≥ 100"}
{"SMILES": "CC(C)c1noc(-c2ccc(N(C)CC(O)c3ccccc3)nc2)n1 (centres unmarked)", "IC50 [µM]": "≥ 100"}
{"SMILES": "N#Cc1ccccc1CN1CCNc2nc(CNCc3ccccc3)n(Cc3ccccc3)c2C1=O", "IC50 [µM]": "≥ 100"}
{"SMILES": "Fc1ccc(-c2ccc3ncc(Nc4cc(F)cc(N5CCOCC5)c4)n3n2)cc1", "IC50 [µM]": "≥ 100"}
{"SMILES": "Clc1ccccc1N1CCN(C2CCNCC2)CC1", "IC50 [µM]": "≥ 100"}
{"SMILES": "COc1cccc2ccc(-c3nccn3CC3(CO)CCOCC3)nc12", "IC50 [µM]": "≥ 100"}
{"SMILES": "Cc1noc2c(N3CCOCC3)cc(-c3cccs3)nc12", "IC50 [µM]": "≥ 100"}
{"note": "Some of these lines once more (sample 2):"}
{"target": "NLK (Homo sapiens, UniProt Q9UBE8)", "how to read": "relative to: untreated control", "remaining activity [%]": 83.9}
{"target": "Cyclin-dependent kinase 2, with cyclin E (CDK2, Homo sapiens, UniProt P24941)", "how to read": "relative to: untreated control", "remaining activity [%]": 103}
{"target": "EPHA2 (Homo sapiens, UniProt P29317)", "how to read": "relative to: untreated control", "remaining activity [%]": 100}
{"target": "PKN1 (Homo sapiens, UniProt Q16512)", "how to read": "relative to: untreated control", "remaining activity [%]": 73.9}
{"target": "PDGFRA (Homo sapiens, UniProt P16234)", "how to read": "relative to: untreated control", "remaining activity [%]": 102}
